Measurements collected from several papers.
Numbered parts are unrelated; each lists some results of a single study.
Chain of UniProt Q9Y243 (whole entry, looked up): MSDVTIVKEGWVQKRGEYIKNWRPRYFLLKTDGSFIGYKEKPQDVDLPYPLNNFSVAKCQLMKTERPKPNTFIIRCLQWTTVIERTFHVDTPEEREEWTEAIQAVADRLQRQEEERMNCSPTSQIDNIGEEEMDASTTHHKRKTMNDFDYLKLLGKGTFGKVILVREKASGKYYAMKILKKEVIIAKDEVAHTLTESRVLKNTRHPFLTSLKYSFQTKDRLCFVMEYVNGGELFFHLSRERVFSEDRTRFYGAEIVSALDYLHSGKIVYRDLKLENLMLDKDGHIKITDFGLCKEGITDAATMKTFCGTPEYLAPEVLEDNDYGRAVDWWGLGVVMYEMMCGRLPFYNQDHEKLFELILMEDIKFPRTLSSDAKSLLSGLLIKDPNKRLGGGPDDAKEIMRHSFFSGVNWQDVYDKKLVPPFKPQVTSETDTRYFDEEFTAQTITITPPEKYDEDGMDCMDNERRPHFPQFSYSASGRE
Chain of UniProt Q13554 (whole entry, looked up): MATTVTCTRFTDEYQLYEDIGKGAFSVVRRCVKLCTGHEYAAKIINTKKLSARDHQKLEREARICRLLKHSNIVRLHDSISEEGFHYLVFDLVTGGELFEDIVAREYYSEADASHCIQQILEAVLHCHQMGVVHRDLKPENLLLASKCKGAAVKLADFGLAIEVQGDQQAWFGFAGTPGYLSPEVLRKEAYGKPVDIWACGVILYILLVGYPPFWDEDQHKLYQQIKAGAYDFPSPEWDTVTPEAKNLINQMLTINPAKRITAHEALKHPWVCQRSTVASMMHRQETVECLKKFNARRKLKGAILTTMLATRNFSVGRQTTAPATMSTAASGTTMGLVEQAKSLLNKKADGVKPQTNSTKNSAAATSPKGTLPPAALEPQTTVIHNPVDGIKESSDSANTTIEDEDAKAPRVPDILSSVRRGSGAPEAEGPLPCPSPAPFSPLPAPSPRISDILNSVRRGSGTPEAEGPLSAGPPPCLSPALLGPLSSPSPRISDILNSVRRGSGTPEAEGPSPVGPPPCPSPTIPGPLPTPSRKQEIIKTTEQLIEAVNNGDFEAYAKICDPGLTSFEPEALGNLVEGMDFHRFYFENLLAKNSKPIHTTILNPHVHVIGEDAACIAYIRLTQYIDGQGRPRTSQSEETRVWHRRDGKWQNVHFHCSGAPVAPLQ
Chain of UniProt P80192 (whole entry, looked up): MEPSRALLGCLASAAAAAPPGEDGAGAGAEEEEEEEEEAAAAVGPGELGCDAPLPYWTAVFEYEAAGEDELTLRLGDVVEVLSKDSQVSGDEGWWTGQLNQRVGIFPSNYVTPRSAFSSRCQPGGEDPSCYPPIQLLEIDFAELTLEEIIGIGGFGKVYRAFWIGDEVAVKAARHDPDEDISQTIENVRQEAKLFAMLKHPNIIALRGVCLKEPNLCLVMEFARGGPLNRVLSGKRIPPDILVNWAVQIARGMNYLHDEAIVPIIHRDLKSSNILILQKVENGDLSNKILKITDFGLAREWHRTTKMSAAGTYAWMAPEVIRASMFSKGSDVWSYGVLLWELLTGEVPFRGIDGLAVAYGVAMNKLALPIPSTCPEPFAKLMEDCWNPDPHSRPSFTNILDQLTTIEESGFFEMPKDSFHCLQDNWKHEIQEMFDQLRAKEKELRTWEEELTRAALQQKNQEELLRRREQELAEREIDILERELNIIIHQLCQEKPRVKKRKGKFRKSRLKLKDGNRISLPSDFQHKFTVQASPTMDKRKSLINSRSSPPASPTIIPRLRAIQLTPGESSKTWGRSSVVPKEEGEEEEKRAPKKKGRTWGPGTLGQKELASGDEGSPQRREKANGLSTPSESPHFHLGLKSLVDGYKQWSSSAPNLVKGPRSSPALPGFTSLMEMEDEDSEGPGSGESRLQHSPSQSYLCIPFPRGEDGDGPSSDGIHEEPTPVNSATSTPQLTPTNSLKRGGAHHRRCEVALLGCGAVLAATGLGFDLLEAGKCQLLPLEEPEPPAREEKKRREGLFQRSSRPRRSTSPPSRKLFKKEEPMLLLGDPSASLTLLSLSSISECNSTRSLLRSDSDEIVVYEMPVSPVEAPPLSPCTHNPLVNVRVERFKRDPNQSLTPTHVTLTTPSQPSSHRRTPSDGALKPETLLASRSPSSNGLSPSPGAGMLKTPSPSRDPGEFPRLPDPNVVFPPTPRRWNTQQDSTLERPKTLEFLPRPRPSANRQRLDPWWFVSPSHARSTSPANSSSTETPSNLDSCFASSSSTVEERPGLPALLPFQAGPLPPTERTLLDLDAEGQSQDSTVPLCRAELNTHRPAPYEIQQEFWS
Chain of UniProt Q5S007 (whole entry, looked up): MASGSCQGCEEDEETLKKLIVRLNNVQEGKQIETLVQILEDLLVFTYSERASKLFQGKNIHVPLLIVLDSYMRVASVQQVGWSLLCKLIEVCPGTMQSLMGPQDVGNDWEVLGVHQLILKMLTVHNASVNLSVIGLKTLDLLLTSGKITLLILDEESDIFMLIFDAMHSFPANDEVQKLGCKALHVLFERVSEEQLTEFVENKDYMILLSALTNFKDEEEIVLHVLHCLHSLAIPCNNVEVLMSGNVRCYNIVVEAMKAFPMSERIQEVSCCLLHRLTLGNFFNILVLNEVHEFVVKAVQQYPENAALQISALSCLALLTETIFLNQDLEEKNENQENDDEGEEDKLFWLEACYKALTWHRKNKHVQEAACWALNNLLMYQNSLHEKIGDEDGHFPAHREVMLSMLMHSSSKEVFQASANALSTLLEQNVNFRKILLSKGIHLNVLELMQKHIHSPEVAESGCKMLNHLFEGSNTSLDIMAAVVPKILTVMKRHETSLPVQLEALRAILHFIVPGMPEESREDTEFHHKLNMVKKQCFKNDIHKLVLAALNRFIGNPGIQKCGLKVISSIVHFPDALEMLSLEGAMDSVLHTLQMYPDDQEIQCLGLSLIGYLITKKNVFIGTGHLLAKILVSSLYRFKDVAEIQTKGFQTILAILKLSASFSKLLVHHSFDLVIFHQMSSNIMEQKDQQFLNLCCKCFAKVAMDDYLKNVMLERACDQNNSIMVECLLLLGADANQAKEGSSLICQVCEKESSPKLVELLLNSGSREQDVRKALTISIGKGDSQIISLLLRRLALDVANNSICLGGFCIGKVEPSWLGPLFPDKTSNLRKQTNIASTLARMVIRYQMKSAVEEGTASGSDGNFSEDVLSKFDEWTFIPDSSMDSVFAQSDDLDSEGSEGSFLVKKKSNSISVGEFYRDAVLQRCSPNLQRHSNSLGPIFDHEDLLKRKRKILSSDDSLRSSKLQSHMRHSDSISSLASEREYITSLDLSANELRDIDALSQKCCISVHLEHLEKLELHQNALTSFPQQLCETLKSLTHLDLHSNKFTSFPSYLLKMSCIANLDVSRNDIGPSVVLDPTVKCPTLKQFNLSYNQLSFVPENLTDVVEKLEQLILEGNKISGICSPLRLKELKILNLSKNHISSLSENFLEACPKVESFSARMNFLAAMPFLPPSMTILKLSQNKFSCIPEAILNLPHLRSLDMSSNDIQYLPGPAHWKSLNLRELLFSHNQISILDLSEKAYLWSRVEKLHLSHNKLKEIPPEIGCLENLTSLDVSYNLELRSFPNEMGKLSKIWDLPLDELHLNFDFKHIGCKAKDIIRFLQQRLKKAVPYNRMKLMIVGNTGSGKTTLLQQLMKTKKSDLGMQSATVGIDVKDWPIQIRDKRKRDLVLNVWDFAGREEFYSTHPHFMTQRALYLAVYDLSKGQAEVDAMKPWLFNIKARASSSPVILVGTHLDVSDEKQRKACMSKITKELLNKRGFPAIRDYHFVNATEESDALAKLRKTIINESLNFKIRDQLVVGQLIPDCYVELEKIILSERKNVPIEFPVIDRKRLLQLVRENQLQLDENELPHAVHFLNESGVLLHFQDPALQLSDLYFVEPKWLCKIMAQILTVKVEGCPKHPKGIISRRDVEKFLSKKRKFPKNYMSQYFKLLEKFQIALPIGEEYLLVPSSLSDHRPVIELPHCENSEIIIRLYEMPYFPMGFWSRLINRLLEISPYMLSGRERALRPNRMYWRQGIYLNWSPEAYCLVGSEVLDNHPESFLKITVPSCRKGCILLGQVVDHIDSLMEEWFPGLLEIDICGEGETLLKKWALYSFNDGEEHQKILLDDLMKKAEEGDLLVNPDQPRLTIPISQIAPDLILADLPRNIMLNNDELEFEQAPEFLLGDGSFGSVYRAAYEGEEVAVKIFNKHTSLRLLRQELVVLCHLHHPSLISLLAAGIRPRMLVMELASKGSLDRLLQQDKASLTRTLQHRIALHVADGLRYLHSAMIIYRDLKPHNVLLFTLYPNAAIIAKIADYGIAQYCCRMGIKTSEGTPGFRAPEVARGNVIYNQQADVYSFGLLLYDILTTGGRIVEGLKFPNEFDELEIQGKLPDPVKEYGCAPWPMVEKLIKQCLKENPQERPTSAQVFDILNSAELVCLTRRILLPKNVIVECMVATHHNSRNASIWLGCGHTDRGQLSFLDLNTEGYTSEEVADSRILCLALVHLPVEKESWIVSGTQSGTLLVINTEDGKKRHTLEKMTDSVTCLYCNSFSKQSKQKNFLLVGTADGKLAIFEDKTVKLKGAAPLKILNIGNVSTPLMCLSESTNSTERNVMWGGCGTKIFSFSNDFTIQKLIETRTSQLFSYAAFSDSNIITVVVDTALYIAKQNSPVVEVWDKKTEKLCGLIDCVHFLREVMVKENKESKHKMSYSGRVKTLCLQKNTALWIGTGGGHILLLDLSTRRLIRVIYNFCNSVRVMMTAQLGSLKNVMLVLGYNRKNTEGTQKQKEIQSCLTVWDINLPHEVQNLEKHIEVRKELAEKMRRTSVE

Series 1
SMILES: CNCc1ccccc1-c1csc([C@@H](C)Nc2nc(C)nc3cc(OC)c(OC)cc23)c1
Read-out: cell-free assay
Technique: competition with immobilised ligand
Tested at: 1 µM
| target | remaining binding [%] |
| --- | --- |
| Tyrosine-protein kinase ABL1, non-phosphorylated (ABL1, Homo sapiens, UniProt P00519, T315I) | 100 |
| CAMK2B (Homo sapiens, UniProt Q13554) | 92 |
| AKT3 (Homo sapiens, UniProt Q9Y243) | 92 |
| MYLK3 (Homo sapiens, UniProt Q32MK0) | 96 |
| PTK6 (Homo sapiens, UniProt Q13882) | 100 |
| MAP3K9 (Homo sapiens, UniProt P80192) | 98 |
| DDR2 (Homo sapiens, UniProt Q16832) | 92 |
| CDKL2 (Homo sapiens, UniProt Q92772) | 99 |
| ULK3 (Homo sapiens, UniProt Q6PHR2) | 78 |
| Ribosomal protein S6 kinase alpha-5, N-terminal kinase domain (RPS6KA5, Homo sapiens, UniProt O75582) | 100 |
| PKN2 (Homo sapiens, UniProt Q16513) | 89 |
| MAP2K5 (Homo sapiens, UniProt Q13163) | 91 |
| MAP3K2 (Homo sapiens, UniProt Q9Y2U5) | 87 |
| EGFR (Homo sapiens, UniProt P00533, A750P/del747-749) | 82 |
| KIT (Homo sapiens, UniProt P10721, V559D/V654A) | 89 |
| SNRK (Homo sapiens, UniProt Q9NRH2) | 78 |

Series 2
Structure (SMILES): C[S+]([O-])c1ccc(-c2nc(-c3ccncc3)c(-c3ccc(F)cc3)[nH]2)cc1 (stereo not shown)
Read-out: enzyme activity
Mode: inhibitor
Tested at: 0.5 µM
Relative to: control
| target | remaining activity [%] |
| --- | --- |
| MKNK2 (Homo sapiens, UniProt Q9HBH9) | 94.4 |
| PRKCI (Homo sapiens, UniProt P41743) | 95.2 |
| PRKCD (Homo sapiens, UniProt Q05655) | 107 |
| PRKG1 (Homo sapiens, UniProt Q13976) | 94.3 |
| MAPK12 (Homo sapiens, UniProt P53778) | 105 |
| LRRK2 (Homo sapiens, UniProt Q5S007) | 100 |
| WNK2 (Homo sapiens, UniProt Q9Y3S1) | 103 |
| BTK (Homo sapiens, UniProt Q06187) | 97.2 |
| MAP3K10 (Homo sapiens, UniProt Q02779) | 104 |
| EPHA5 (Homo sapiens, UniProt P54756) | 89.5 |
| IRAK4 (Homo sapiens, UniProt Q9NWZ3) | 130 |
| MAP4K2 (Homo sapiens, UniProt Q12851) | 106 |
| Cyclin-dependent kinase 9, with cyclin T1 (CDK9, Homo sapiens, UniProt P50750) | 83.8 |
| LYN (Homo sapiens, UniProt P07948) | 91.8 |
| NEK4 (Homo sapiens, UniProt P51957) | 98.2 |
| MAPK13 (Homo sapiens, UniProt O15264) | 106 |
| AKT3 (Homo sapiens, UniProt Q9Y243) | 102 |

Series 3
Structure (SMILES): C=CC(=O)N1CCC([C@@H]2CCNc3c(C(N)=O)c(-c4ccc(Oc5ccccc5)cc4)nn32)CC1
Read-out: enzyme activity
Tested at: 1 µM
| target | assay | inhibition |
| --- | --- | --- |
| LIM domain kinase 2 (LIMK2, Homo sapiens, UniProt P53671) | inhibitor | 0% |
| STK32B (Homo sapiens, UniProt Q9NY57) |  | 13% |
| MAP3K14 (Homo sapiens, UniProt Q99558) | inhibitor | 0% |
| Tyrosine-protein kinase ABL1, non-phosphorylated (ABL1, Homo sapiens, UniProt P00519, F317I) | inhibitor | 34% |
| PDGFRA (Homo sapiens, UniProt P16234) | inhibitor | 8% |
| MYLK (Homo sapiens, UniProt Q15746) | inhibitor | 23% |
| PIK3CA (Homo sapiens, UniProt P42336, E545A) | inhibitor | 7% |
| ERBB2 (Homo sapiens, UniProt P04626) | inhibitor | 95% |
| Tyrosine-protein kinase ABL1, phosphorylated (ABL1, Homo sapiens, UniProt P00519, E255K) | inhibitor | 15% |
| ACVRL1 (Homo sapiens, UniProt P37023) | inhibitor | 0% |
| PKN1 (Homo sapiens, UniProt Q16512) | inhibitor | 35% |
| PKMYT1 (Homo sapiens, UniProt Q99640) | inhibitor | 21% |

Series 4
Species: mouse
Medium: microsomes or S9
Tested at: 2 µM
Time: 0.5 h
| Structure (SMILES) | remaining compound |
| --- | --- |
| O=C(Nc1nccs1)C1Cc2ccccc2CN1S(=O)(=O)c1cccs1 (stereo not shown) | 0.67% |
| CN(C)c1ccc(-c2nc3n(c2NC(C)(C)CC(C)(C)C)CCNC3)cc1 | 9.89% |
| COC(=O)c1c(OC)cc2c(c1C)Oc1c(Cl)c(O)c(Cl)c(C)c1C(=O)O2 | > 99% |
| O=C(NC1CCCCC1)c1cnn2c(=O)cc(-c3ccc(F)cc3F)[nH]c12 | 17.3% |
| Nc1cc(Cl)c(Oc2ccc(Cl)nn2)c(Cl)c1 | 21.6% |
| c1ccc(CN2CCc3nc(N4CCCC4)nc(N4CCn5cnnc5C4)c3C2)cc1 | 11.8% |
| Cc1cc2c3c(c1)C1(NC(=O)c4ccccc4N1)C(=O)N3C1(CCCCCC1)CC2(C)C (stereo not shown) | 16.8% |
| Cc1nc(-c2ccncc2)nc(NCCCCn2ccccc2=O)c1C | 0.104% |
| Cc1sc(Br)nc1-c1ccc(NS(C)(=O)=O)c(Cl)c1 | 0.0644% |
| COC(C)(C)c1noc(-c2ccc(=O)n(C)n2)n1 | 77.2% |
| CCn1ccc(C(=O)Nc2c(C)cc(C)cc2C)n1 | 52.2% |
| Cc1ncsc1CC[S+]([O-])c1ccc(S(C)(=O)=O)cc1 (stereo not shown) | 79.2% |
| CN(CCc1ccccc1)c1ncc(-c2ncc[nH]2)c(-c2ccc(F)cc2)n1 | 0.066% |

Repeated from above (series 3):
| target | assay | inhibition |
| --- | --- | --- |
| Tyrosine-protein kinase ABL1, phosphorylated (ABL1, Homo sapiens, UniProt P00519, E255K) | inhibitor | 15% |
| MYLK (Homo sapiens, UniProt Q15746) | inhibitor | 23% |
| LIM domain kinase 2 (LIMK2, Homo sapiens, UniProt P53671) | inhibitor | 0% |
